Measured values collected from several papers.
A part holds a random share of what one study measured. Positions count from the first letter of the parent shown.

Set 1 — technique: RNA Bind-n-Seq; molecule type: RNA; medium: in vitro; concentration: 365 nM; relative to: no-protein control; direction: higher = stronger binding; endpoint: RBNS enrichment (R)
Target: RNA binding protein fox-1 homolog 2, RRM domain, GST-SBP tag (RBFOX2, Homo sapiens, UniProt O43251-10, residues 100-194)
Notes: natural RNA segment, single round, ends assumed
Constant ends, left off below: GGGAGUUCUACAGUCCGACGAUC … UGGAAUUCUCGGGUGCCAA
Construct (chain): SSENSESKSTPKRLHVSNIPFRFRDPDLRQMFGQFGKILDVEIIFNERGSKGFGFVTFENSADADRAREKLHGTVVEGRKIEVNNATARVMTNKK
AAGGUAGUUAAAAUUUGUAAAUGCUAAGGCGUUGCCAGGUCCUAAUGAGUCAGACCUGUACUACUGAUUAUUAAGCAGGACAGACUGAGCUUUCUGCAAAUAGCUUGAAG: 0.749
ACCUUCCCUCUUCCGGAUCUGUUUUGGUCUGGACUAUGGGCUCAUCAGGCCCAGGAUCCCGGACCAAAGACUGAGAUGACCCUUCCAAUAAAAGGCCAUUUCGGACUCUG: 0.286
GUGCCAUUGAGUUUCAAAUGACCAGCAAAUAUAUUUAGAACCCUUCCUGUUUUAUGUCUGUACCUCGUCCACCCCUCAGGUAAUACCUGCCUCUCACAGGUACAGCUGUU: 0.596
ACCUUUUAGGCAGUUUUUCUGCAUUGAUUUCAUGAAAGAAGCUAUACAUUAGCUAAUACUAACCACAUAGAAUAUCAGACUUAGAUACGUGAAUAAGGAUCCUGUGGGCA: 0.899
AACAUGUUGGUGGGUAAUUAUGCGAAUGUUUCCCUGUCCCUGAUUUCUCGAUUAGGCGUAUGGGUUUUGAAAAAGAGAUUUUUCAGAAGAUUGUCAGCUUCAGUAUUCAU: 0.353
CUGAGGCCAUGAGAACCUGAGGGGCAUCUGCCCAGGACAGGAGCCAUGGCAUAUGACAAAGACCAAUGAGGGACCAGGAAAAAAAGUGAUGUCCCCUUUCCCUGCCACCU: 0.214
GACAUGUGCGACUCUUAAGAAAGCCAUACUUAAUGGUGGUGGUUUUUUUUAGAUCUUAUAUUGUGUUUUGUAUGCAGCCCUUUUAGAACUACUUGUAGUGAGGGUGCUGU: 0.333
CAGUCACCAGGGAGCUCACUUUCCACUUGGAGACGCUUUGCUCUGCUUGUGCACCGCCAGCUUCUGUCUCCAGAAAAGUGUAACUUUGCUCUGUUUCUGCAUGAAGCACA: 2.24

Set 2 — technique: DHFR PCA, deep sequencing; medium: yeast; with: (+)-ABA 58 µM; relative to: wild-type fitted maximum; direction: higher = stronger binding; endpoint: relative binding score
Target: ABI1, truncated, D143A, DHFR fusion (Arabidopsis thaliana)
Notes: methotrexate growth selection, single substitutions
Starting sequence: PYL1, truncated, DHFR fusion (Arabidopsis thaliana); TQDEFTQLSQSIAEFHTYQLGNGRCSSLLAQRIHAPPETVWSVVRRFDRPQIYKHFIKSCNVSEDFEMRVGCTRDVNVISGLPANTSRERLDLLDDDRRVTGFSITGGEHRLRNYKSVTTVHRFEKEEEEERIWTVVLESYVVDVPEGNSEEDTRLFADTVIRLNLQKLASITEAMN; partner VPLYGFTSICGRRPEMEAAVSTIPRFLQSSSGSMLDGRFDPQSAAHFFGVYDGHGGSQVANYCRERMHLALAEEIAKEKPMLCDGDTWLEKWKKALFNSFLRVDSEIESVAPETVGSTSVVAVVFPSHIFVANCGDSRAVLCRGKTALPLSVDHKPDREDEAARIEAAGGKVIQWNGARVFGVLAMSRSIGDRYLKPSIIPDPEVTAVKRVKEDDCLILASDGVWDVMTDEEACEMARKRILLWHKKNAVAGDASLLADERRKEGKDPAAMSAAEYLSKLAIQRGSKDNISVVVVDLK
S11Q: 91.1%
E130I: 91.6%
R49I: 54.6%
V76M: 36.1%

Set 3 — target: CCNB3, cyclin fold, Cln2 fusion (human); technique: yeast growth competition, sequencing; medium: yeast; notes: weak parent motif; relative to: not given; direction: higher = stronger binding; endpoint: normalised enrichment score
Starting sequence: PKN2 docking peptide (human); VSAVQKLDFSDTM; partner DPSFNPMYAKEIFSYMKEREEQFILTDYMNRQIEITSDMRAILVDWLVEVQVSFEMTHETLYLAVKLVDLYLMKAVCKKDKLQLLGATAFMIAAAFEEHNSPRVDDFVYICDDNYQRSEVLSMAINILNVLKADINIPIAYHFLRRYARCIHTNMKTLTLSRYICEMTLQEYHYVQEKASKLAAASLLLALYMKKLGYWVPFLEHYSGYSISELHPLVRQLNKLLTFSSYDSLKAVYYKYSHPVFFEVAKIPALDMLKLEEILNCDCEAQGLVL
VSAVQGLDFSDTM [K6G]: 0.265
VSAVQKLDFSDCM [T12C]: 0.656
YSAVQKLDFSDTM [V1Y]: 0.417
VSAVQKNDFSDTM [L7N]: 0.133
VSAAQKLDFSDTM [V4A]: -0.0584
QSAVQKLDFSDTM [V1Q]: 0.412

Other studies, line by line
PhoQ, residues 284 288 289 292 302 303 ALAMYF
fold induction (PhoP, residues 12 14 15 18 19 NQAHL (Escherichia coli, UniProt P23836); Sort-seq, refers to: YFP reporter; E. coli; PhoQ-PhoP variant library, with: 10 µM Mg2+; relative to: high Mg2+ state, higher = stronger signaling): 10

Repeated from above (set 1):
GUGCCAUUGAGUUUCAAAUGACCAGCAAAUAUAUUUAGAACCCUUCCUGUUUUAUGUCUGUACCUCGUCCACCCCUCAGGUAAUACCUGCCUCUCACAGGUACAGCUGUU: 0.596
ACCUUUUAGGCAGUUUUUCUGCAUUGAUUUCAUGAAAGAAGCUAUACAUUAGCUAAUACUAACCACAUAGAAUAUCAGACUUAGAUACGUGAAUAAGGAUCCUGUGGGCA: 0.899
